Experimental data from different studies.
Protocols differ between the studies behind these lines. Numbers after ± are the reported error.
Organism: HIV-1

| Compound | assay | system | conditions | scale | EC50 |
| --- | --- | --- | --- | --- | --- |
| Cc1cc(Br)cc(C)c1Oc1cc(Nc2ccc(C#N)cc2)c(N)cc1[N+](=O)[O-] | viral replication, p24 ELISA | MT2, IIIB wild type |  |  | 52 ± 5 nM |
| Cc1ccc(N(C)C(=O)[C@H](Cc2ccccc2)NC(=O)CNC(=O)c2ccccc2)cc1 | viral replication | TZM-GFP, NL4-3 |  |  | 1600 ± 20 nM |
| Cc1cc(C)cc(S(=O)(=O)c2c(C(=O)NCCCCNS(=O)(=O)c3ccc(Br)cc3)[nH]c3ccc(Cl)cc23)c1 | viral replication | MT-4, IIIB |  |  | 77 ± 31 nM |
| c1nc2c(NCc3ccc(CNCCCNC4CCCCC4)cc3)nc(N3CCC(C4CCNCC4)CC3)nc2[nH]1 | viral replication, luciferase reporter | TZM-bl, IIIB |  |  | 84.3 ± 15.8 nM |
| [N-]=[N+]=N[C@H]1C[C@H](n2ccc(=O)[nH]c2=O)O[C@@H]1CO | viral replication | human PBM cells, LAI |  |  | 200 nM |
| O=C(O)c1cc(Br)ccc1-n1c(-c2ccccc2)nc2ccc(Br)cc2c1=O | cytopathic effect | MT-4, IIIB | 5 days |  | > 60.4 µg/mL |
| C=C(C)[C@@H]1CC[C@]2(NCCN3CCS(=O)(=O)CC3)CC[C@]3(C)[C@H](CC[C@@H]4[C@@]5(C)CC=C(C6=CC[C@@](CF)(C(=O)O)CC6)C(C)(C)[C@@H]5CC[C@]43C)[C@@H]12 | viral load | human, HIV-1 patients, plasma | 192 h |  | 0.17 µg/mL |
| c1nc2c(NCc3ccc(CNCCCNC4CCCCC4)cn3)nc(N3CCNCC3)nc2[nH]1 | viral replication, luciferase reporter | TZM-bl, IIIB |  |  | 4.2 ± 0.3 nM |
| O=c1[nH]cnc2c1ncn2[C@H]1CC[C@@H](CO)O1 | viral cytopathicity | CEM, IIIB | 4 days |  | 4600 ± 2600 nM |
| Cc1cc(C)cc(S(=O)(=O)c2c(C(=O)NCCCNS(=O)(=O)c3ccc(Cl)cc3)[nH]c3ccc(Cl)cc23)c1 | viral replication | MT-4, IIIB |  |  | 17 ± 6.7 nM |
| Nc1ncnc2c1ncn2[C@H]1CC[C@@H](CO)O1 | viral replication, supernatant RT activity | human PBM cells, LAI | 6 days |  | 590 nM |
| Cc1cc(C)cc(S(=O)(=O)c2c(C(=O)NCCCCCNS(=O)(=O)c3ccc(F)cc3)[nH]c3ccc(Cl)cc23)c1 | viral replication | MT-4, IIIB |  |  | 20 ± 5 nM |
| O=c1[nH]c(=O)n([C@H]2C[C@H](OP(=O)(O)OC[C@H]3O[C@H](O)[C@H](O)[C@@H](O)[C@@H]3O)[C@@H](CO)O2)cc1I | viral replication, supernatant RT activity | human PBM cells, LAI | 6 days |  | > 100000 nM |
| Cc1cc(C)cc(S(=O)(=O)c2c(C(=O)NCCCNS(=O)(=O)c3ccc(C#N)cc3)[nH]c3ccc(Cl)cc23)c1 | viral replication | MT-4, IIIB |  |  | 31 ± 3.4 nM |
| Nc1nc2c(ncn2COCCOP(=O)(O)O)c(=O)[nH]1 | viral replication, refers to: p24 antigen | MT-4, LAI.04 | cells preincubated with compound overnight |  | 100000 ± 11000 nM |
| Cc1cc(C)cc(S(=O)(=O)c2c(C(=O)NCCNS(=O)(=O)c3ccc(Cl)cc3)[nH]c3ccc(Cl)cc23)c1 | viral replication | MT-4, IIIB |  |  | 13 ± 4.8 nM |
| Cc1cn([C@H]2C[C@H](N=[N+]=[N-])[C@@H](COC(=O)Cn3c(=O)ccn(CCCCCCCCCCCCOc4ccc(Br)cc4)c3=O)O2)c(=O)[nH]c1=O | viral replication, refers to: p24gag | MT4, Lai.04 | 3 days |  | 210 ± 100 nM |
| Cc1cc(C)cc(S(=O)(=O)c2c(C(=O)NCCCNS(=O)(=O)c3cccc(F)c3)[nH]c3ccc(Cl)cc23)c1 | viral replication | MT-4, IIIB |  |  | 35 ± 12 nM |
| Cc1[nH]c2ccccc2c1CC(=O)N[C@@H](Cc1ccccc1)C(=O)N(C)c1ccccc1 | HIV-1-induced cytopathicity, MTT | MT-4, wild type |  | 50% protection | 790 ± 90 nM |

Some of these lines once more:
| Compound | assay | system | conditions | scale | EC50 |
| --- | --- | --- | --- | --- | --- |
| O=c1[nH]cnc2c1ncn2[C@H]1CC[C@@H](CO)O1 | viral cytopathicity | CEM, IIIB | 4 days |  | 4600 ± 2600 nM |
| Cc1cc(C)cc(S(=O)(=O)c2c(C(=O)NCCCNS(=O)(=O)c3ccc(Cl)cc3)[nH]c3ccc(Cl)cc23)c1 | viral replication | MT-4, IIIB |  |  | 17 ± 6.7 nM |
| Nc1ncnc2c1ncn2[C@H]1CC[C@@H](CO)O1 | viral replication, supernatant RT activity | human PBM cells, LAI | 6 days |  | 590 nM |
